Measurements pooled from the literature.
Parts stem from different laboratories: compare values within a part only. Changes are numbered by the printed parent chain.

Set 1
Target: RING finger protein unkempt homolog, zinc fingers 1-6, GST-SBP tag (UNK, Homo sapiens, UniProt Q9C0B0, residues 30-357)
UniProt Q9C0B0, sequence (30-357, looked up): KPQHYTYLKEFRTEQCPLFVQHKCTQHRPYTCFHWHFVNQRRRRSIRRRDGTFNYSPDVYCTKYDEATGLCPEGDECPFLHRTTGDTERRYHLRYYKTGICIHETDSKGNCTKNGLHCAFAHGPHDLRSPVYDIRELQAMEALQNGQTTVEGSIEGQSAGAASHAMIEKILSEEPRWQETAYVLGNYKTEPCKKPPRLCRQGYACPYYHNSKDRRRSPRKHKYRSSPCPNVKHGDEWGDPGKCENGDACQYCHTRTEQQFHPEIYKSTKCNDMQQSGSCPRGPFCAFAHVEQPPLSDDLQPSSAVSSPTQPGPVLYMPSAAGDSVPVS
Method: RNA Bind-n-Seq
Form: RNA
Matrix: in vitro
Tested at: not given
Setting: RNA with constant flanks, ends assumed
Relative to: input RNA pool
Reading: higher = stronger binding
Measurement: bound/input enrichment
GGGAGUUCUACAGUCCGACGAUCACCAUAAUUCCUCUUAAGCAUAUGACUAAUUUAUUUCUUAUUCAUUUCCAUUUCAGCAUUCCGUUCUUUAUUUUUAUUAUGGGGCUAGUUCAGAACUGGAGUGGCUGUAUAGCAGUGUAGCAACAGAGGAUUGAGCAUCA: 8.88 ratio
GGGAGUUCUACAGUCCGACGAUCUCAGAUAACGUCACUCGCGCUUGUAGCUUCAUCCGGGAGGCAGCAACGCAAGGAGCCAAAACCGUUUCUUUGCCGGAAUGCUUUAAUUCUCCAUAUGGAGCGAAAUAUUUUCCUGAAUAUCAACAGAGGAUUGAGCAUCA: 0.106 ratio
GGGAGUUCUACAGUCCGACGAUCCUAACCCUUCAACCCCCUCGCCUCCUACUCUGAGACAAAAGAAAAAAUAUUAAAAAAAUGCACCGGCUUAACUCGCUGAUGAGUUAAUUGUUUUAUUUUUAAACUCUUUUUGGGUCCAGUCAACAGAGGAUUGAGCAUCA: 0.368 ratio
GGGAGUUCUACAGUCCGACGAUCGCAGAUGCAGUAGGCGUAACUGUUGUGCUAAUUACUUGUACCUAUCGAGGACAAGAAUUUAUCCGAGUUGGCUAUUAUGUAAAUAAUGAAUAUACUGAGACAGAAUUAAGGGAAAAUCCACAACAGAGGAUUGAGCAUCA: 0.396 ratio
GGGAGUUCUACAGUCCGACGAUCAUCAGAGACCAUGUAGUUCAACUUUCCACUCAAAGUAAGAUUUAUGAAUUAUUUAAAUGACCGUUGUUACUUGGAACAGCCACUUGAGAGGCUCUCUUGGUAUUGUUUGGAAUUGUUUUACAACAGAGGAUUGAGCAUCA: 1.13 ratio
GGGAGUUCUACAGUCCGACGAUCUACUACUAUGAUGGUGAUAUUGGCAAUUAUUAUUAUGGCCAGGGUCAUCCCAUGAAGCCUCACCGAAUCCGGAUGACUCAUAACUUGCUGCUAAAUUAUGGUUUAUACCGAAAAAUGGAACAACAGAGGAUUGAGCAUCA: 0.155 ratio
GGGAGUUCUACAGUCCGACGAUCAUAAGUUAUAAUUUCUGUUCACUUUGUAUUUGUUCAGUAUGCAAAGUGUGUCACCCUUUCCCGCUGAAUUCAAUUCCCACGUAGACUCUUAUUUUAUAGGACGAAUGCCAAAUUGCAGCUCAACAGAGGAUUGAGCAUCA: 9.25 ratio
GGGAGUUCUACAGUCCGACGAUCAACCUUCAACAGUAGAAGUUCUAGAAAAUAUAGAUAAGGAAAUUCAAGCAUUGGAAGAAUUCCGAGAAAAAAAUCAGAGAUUGCAAAAAUUAUGGGUUGGAAGAUUAAUUAUCUAUUCUUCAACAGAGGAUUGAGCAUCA: 2.89 ratio
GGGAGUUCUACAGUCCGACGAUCUCUCUCGAGUUGAAGAAGACUAUCUCUGGAGGAUAAAACAACUAGGAUCCCACUCUCCAGCCGCACUUUUGAAUACCCUAUUCUACUUUAACACUAAGUAUUUUGGCCUGAAAACAGUGGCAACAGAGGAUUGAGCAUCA: 0.144 ratio
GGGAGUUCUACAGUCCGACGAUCGACUCUAAGCUGACAAGACUCUUGCAGGAUUCCCUUGGGGGUAACAGCCAAACCAUCAUGACCGCAUGCGUCAGCCCUUCAGACAGGGAUUUCAUGGAGACGUUAAACACUCUGAAGUACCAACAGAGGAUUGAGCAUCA: 0.198 ratio
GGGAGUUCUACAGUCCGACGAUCGAAUUACAACCAUAAAAUGUGUAAUGUUUUGAACAGUAUUCUGUUGGGAUGGAGAUUUUACCGGUUCAGACAAAUCUUCUAGAUCUGCUUCACCCAGCAUAUUUUCUAUUCAGUGAUAUACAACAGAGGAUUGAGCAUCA: 0.208 ratio

Set 2
Target: ATF7, bZIP domain (human)
Method: DHFR protein complementation
Matrix: yeast
Setting: single substitutions, most at no-binding floor
Relative to: wild-type JUN-FOS pair
Reading: higher = stronger binding
Measurement: binding fitness
Starting sequence: JUN, bZIP domain (human); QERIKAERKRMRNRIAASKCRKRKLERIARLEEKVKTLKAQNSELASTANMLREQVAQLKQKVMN; partner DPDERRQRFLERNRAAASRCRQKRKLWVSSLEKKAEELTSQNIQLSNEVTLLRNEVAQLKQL
K39Q: -0.971 natural log
S47Q: -0.84 natural log
K34D: -1.35 natural log
L45K: -1.53 natural log
A46L: -0.841 natural log
L45W: -1.49 natural log
A29T: -0.892 natural log
R53C: -1.38 natural log
E54K: -1.1 natural log
K39L: -1.05 natural log
A46I: -0.895 natural log
L31Y: -1.38 natural log
S43L: -0.842 natural log
N42S: -1.41 natural log
A29F: -0.905 natural log
K34S: -1.19 natural log
Q55S: -1.37 natural log
E33H: -1.16 natural log
A46N: -0.826 natural log
A29C: -0.989 natural log
N42Q: -1.2 natural log
Q41R: -0.908 natural log
T48G: -1.44 natural log
L59H: -1.53 natural log
Q55V: -0.984 natural log

Set 3
Target: Prothrombin, mature alpha-thrombin (F2, Homo sapiens, UniProt P00734)
Method: aptamer microarray, sandwich
Form: DNA with 2'F-ANA
Matrix: in vitro
Tested at: 200 nM
Setting: whole 15-mer aptamer, many near background
Together with: Cy3 exosite-II aptamer, 400 nM
Reading: higher = stronger binding
Measurement: mean fluorescence intensity
Strand: GGTTGGTGTGGTTGG
2'F-ANA at 2 3 6 9 10 11 12 13 15: 326 a.u.
2'F-ANA at 1 3 4 5 6 7 10 11 12 14: 49 a.u.
2'F-ANA at 2 4 5 6 7 9 11 12 14: 46.5 a.u.
2'F-ANA at 2 3 5 6 8 12 13 14 15: 89.9 a.u.
2'F-ANA at 1 2 5 6 10 14: 47.1 a.u.
2'F-ANA at 1 6 8 10 13 14: 48.6 a.u.
2'F-ANA at 4 5 9 10 11 12: 48.7 a.u.
2'F-ANA at 1 2 3 4 5 7 8 9 11 12 13 15: 71.5 a.u.
2'F-ANA at 3 4 5 8 9 13 14: 47.8 a.u.
2'F-ANA at 2 4 6 7 9 10 11 12 13 15: 76.5 a.u.
2'F-ANA at 2 3 6 7 9 13 14 15: 324 a.u.
2'F-ANA at 4 5 6 10 14 15: 48.3 a.u.
2'F-ANA at 2 3 4 5 7 9 10 11 15: 49.6 a.u.
2'F-ANA at 3 4 5 6 9 12 13: 109 a.u.
2'F-ANA at 1 2 3 4 5 6 8 9 10 13: 46.8 a.u.
2'F-ANA at 3 4 7 9 10 11 12: 392 a.u.
2'F-ANA at 1 2 3 5 9 11 14: 46.1 a.u.
2'F-ANA at 2 4 6 8 9 10 12 13 14 15: 60.3 a.u.
2'F-ANA at 1 3 6 8 11 12 14: 119 a.u.
2'F-ANA at 1 2 3 4 5 6 7 9 10 14: 52.8 a.u.
2'F-ANA at 2 7 8 11 12 13 14: 189 a.u.
2'F-ANA at 1 2 6 7 10 11 14: 51.8 a.u.
2'F-ANA at 1 7 8 9 13 14 15: 59.2 a.u.
2'F-ANA at 2 4 5 7 8 11 13 14: 47.8 a.u.
2'F-ANA at 1 2 5 11 15: 52.5 a.u.

Set 4
Target: CCND2, cyclin fold, Cln2 fusion (human)
Method: yeast growth competition, sequencing
Matrix: yeast
Setting: weak parent motif
Relative to: not given
Reading: higher = stronger binding
Measurement: normalised enrichment score
Starting sequence: RBL1 docking peptide (human); GSAKRRLFGEDPP; partner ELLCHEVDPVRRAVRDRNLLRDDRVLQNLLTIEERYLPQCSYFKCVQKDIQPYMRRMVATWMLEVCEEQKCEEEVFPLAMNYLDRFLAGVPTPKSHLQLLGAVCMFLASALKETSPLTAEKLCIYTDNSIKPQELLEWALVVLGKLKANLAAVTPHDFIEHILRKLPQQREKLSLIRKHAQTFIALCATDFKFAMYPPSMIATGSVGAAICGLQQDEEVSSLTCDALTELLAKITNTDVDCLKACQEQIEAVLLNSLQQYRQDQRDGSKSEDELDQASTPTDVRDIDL
GSAKRRLFGEDPF [P13F]: -0.0872
GSAKRRLRGEDPP [F8R]: -0.121
GSAKRRVFGEDPP [L7V]: 0.553
GSAKRALFGEDPP [R6A]: 0.144
GSAKRRLFGEDLP [P12L]: 0.387
GSAKRRLFGEAPP [D11A]: 0.295
GSAKRRLFGEDVP [P12V]: 0.418
GSAKRRLFGPDPP [E10P]: 0.117
ESAKRRLFGEDPP [G1E]: 0.0596
LSAKRRLFGEDPP [G1L]: 0.862
GSAKRRLFGLDPP [E10L]: 0.344
GSAKRRLFNEDPP [G9N]: 0.684
GSAKRRLFGEDPQ [P13Q]: 0.0489
GSHKRRLFGEDPP [A3H]: 0.351
GSAIRRLFGEDPP [K4I]: 0.662
GSAKRRLFGWDPP [E10W]: 0.211
GSAKRRLFGEDFP [P12F]: 0.0707
GSAKRRLFGMDPP [E10M]: 0.114
GSAKRRLFGEDPW [P13W]: 0.716
GSALRRLFGEDPP [K4L]: -0.184
GSAKARAFGEDPP [R5A L7A]: -0.224
GSAKRRLWGEDPP [F8W]: -0.159
GSAKYRLFGEDPP [R5Y]: 0.503
GSAKFRLFGEDPP [R5F]: 0.194
GSAKRRLIGEDPP [F8I]: 0.429

Set 5
Target: ABI1, truncated, D143A, DHFR fusion (Arabidopsis thaliana)
Method: DHFR PCA, deep sequencing
Matrix: yeast
Setting: methotrexate growth selection, single substitutions
Together with: (+)-ABA 0.11 µM
Relative to: wild-type fitted maximum
Reading: higher = stronger binding
Measurement: relative binding score
Starting sequence: PYL1, truncated, DHFR fusion (Arabidopsis thaliana); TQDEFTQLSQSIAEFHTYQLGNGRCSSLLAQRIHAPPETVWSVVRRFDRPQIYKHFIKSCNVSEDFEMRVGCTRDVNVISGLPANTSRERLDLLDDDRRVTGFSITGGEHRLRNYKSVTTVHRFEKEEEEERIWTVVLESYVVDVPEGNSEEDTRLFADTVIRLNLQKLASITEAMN; partner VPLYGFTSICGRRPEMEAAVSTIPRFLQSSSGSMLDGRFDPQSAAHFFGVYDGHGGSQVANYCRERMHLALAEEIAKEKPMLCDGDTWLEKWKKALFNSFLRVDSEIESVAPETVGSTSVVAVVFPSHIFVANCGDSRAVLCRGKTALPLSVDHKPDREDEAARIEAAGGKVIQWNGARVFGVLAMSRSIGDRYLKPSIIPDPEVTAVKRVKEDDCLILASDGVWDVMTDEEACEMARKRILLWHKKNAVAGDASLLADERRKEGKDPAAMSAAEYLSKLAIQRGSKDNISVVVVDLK
Y18P: 12%
R49N: 6.49%
T6Q: 51.6%
F15E: -1.04%
T173M: 4.36%
S117G: 1.61%
K58W: 0.4%
V70W: -5.77%
I162N: 5.26%
H110E: 50%
E174A: 3.23%
L20I: 39.9%
V121K: -2.51%
I33S: 2.04%
L156S: 6.87%
D3I: 17.6%

A few entries again (set 3):
2'F-ANA at 2 4 5 6 7 9 11 12 14: 46.5 a.u.
2'F-ANA at 2 3 5 6 8 12 13 14 15: 89.9 a.u.
2'F-ANA at 1 2 5 6 10 14: 47.1 a.u.
2'F-ANA at 1 6 8 10 13 14: 48.6 a.u.
2'F-ANA at 4 5 9 10 11 12: 48.7 a.u.
2'F-ANA at 1 2 3 4 5 7 8 9 11 12 13 15: 71.5 a.u.
2'F-ANA at 3 4 5 8 9 13 14: 47.8 a.u.
2'F-ANA at 2 4 6 7 9 10 11 12 13 15: 76.5 a.u.
2'F-ANA at 2 3 6 7 9 13 14 15: 324 a.u.
2'F-ANA at 4 5 6 10 14 15: 48.3 a.u.
2'F-ANA at 2 3 4 5 7 9 10 11 15: 49.6 a.u.
2'F-ANA at 3 4 5 6 9 12 13: 109 a.u.
2'F-ANA at 1 2 3 4 5 6 8 9 10 13: 46.8 a.u.
2'F-ANA at 3 4 7 9 10 11 12: 392 a.u.
2'F-ANA at 1 2 3 5 9 11 14: 46.1 a.u.
